Results from different studies.
A part holds a random share of what one study measured. Positions count from the first letter of the parent shown.

Block 1
Target: RNA binding protein fox-1 homolog 2, RRM domain, GST-SBP tag (RBFOX2, Homo sapiens, UniProt O43251-10, residues 100-194)
Technique: RNA Bind-n-Seq
Form: RNA
Sample: in vitro
Concentration: 365 nM
Notes: natural RNA segment, single round, ends assumed
Baseline: no-protein control
Reading: higher = stronger binding
All sequences stand within: GGGAGUUCUACAGUCCGACGAUC … UGGAAUUCUCGGGUGCCAA
Residues (chain): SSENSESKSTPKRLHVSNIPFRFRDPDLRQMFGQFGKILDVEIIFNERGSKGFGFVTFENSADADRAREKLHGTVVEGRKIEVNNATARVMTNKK
Strand | RBNS enrichment (R)
CUUAGUACUAGUGUUUCCUACUUGAUCUCCCAUGCCUGUGGAGACUAAGCCCCCACUACCCCAGAGCUAUCUUCUGUAGCCCAAAGGCAAGGCAGUGACCUCCUACUGAC | 0.519
AGCCAGGCUGCCGUGGUGUCAUUUCUGUCAUCCGUGCUCUGUUUCCUUUUGGAGUUUCUUCUCCACAUUAUCUUUGUUCCUGGGGAAUAAAAACUACCAUUGGACCUAGA | 0.229
GCAUAUAUAUUUAUAUUCAUUGAUCAAACUGAUAUGCUACAGGAGAAUGUAUGCAAUGUGUAAAAAAUGCAAAUGGCUGUAUGCAUUGAAUAAAAAUAAUAUACAAUUAG | 1.12
UUAAUCUGGUUCAUUUGAAAUUUCUCACUUCUUAACCAUAGAGCUAAGUUAUUGUCAAAACUGGGCAGGAGACAGGAGAUUGGAGUGGUCUCUGCUGGGGUGUCUGACCC | 0.534
UGGUCAAAACAAACUUCCUUUUCCCUUGAUCACCCUGCACGCAGCUGCCCAGCUUCCAGUUUUUAAAGAGAUGAACAGCUCUCACUUCCUGACUCAGUUUCUCUUGUUGG | 3.14
CCUGGACCACAAUUUGUAAGCCAUUCUAAUACAUCCCCUUUAUAUGUAUUUUUUCAUUCUAUAAGUUCUGUUCUAGAGAAUCCCAAGUAAUACAGAUUUUCAUAUCAGAG | 0.372
UUUUAUGUUUACAGGGCACGUCUGUUGUAAUGCAAAGCAUAUUUGGCAAGCAGUUCAUCACCAGGACACUAGCUAUGAUUCUAGAAGUCAAAAGGUGUCUAUAGAACUAG | 0.378
GCCCUUGGCGGGAGCUUUGUGGGGGCGAGCCUGAAGAGGAAGGAACAGUGCUACUUCUAAGUGAUGUUUAUUUUCUGUACCUGAAAUGGUUGCAAUUUAGAGAUGUUCCA | 0.513
GAGAGCCUGCGUUCUUCUGCCUCAGCUCUGCUCCUCAGGAAGGGGUGGCUCCAGCUGCCCACCAUUCUCACUCUUCUCCUCCCAAGCCACCGGGGUCAGGUCUCUCAUCU | 0.386
UGGCCCUGCCAGCAGGCGGAGGAUGAGGCCCUCCUUCUCUGAGGACGGGUCUGCUGGAGAGAGAAGAAACAGGUGGCUGCCUUCCACCUCACUCCUCACUUGAGCUGCCU | 0.198
GGGUCAGCAGCACUGGGUGUCUAGAGAAAUUUGGCCUGGCCCAUUUGAAGGCAACAAGAACCAAACAGGAUCUUGUCAUCACAUCUGAAUAAAGCUCCAUGAGCUGGCUG | 0.288
CGACUACAGAGUACUUUUUUCUUAUGAUGAUUGGUGUAGAAAUGUGUGAUUUGGGUGGGCUUUUACAUCUUGCCUACCAUUGCAUGAAACAUUGGGGUUUCUUCAAAAUG | 14.7

Block 2
Target: MAFG, bZIP domain (human)
Technique: DHFR protein complementation
Sample: yeast
Notes: single substitutions, most at no-binding floor
Baseline: wild-type JUN-FOS pair
Reading: higher = stronger binding
Starting sequence: JUN, bZIP domain (human); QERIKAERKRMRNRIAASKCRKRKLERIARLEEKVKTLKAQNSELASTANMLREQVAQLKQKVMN; partner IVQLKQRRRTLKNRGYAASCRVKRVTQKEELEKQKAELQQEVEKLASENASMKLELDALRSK
Variant | binding fitness [natural log]
E32S | -1.35
A46Q | -1.5
M51D | -1.48
K39D | -1.48
L31N | -1.38
K39E | -1.44
A40Q | -1.22
L31A | -1.38
V56N | -1.54
L38R | -1.44
K39L | -1.46
A49C | -1.45
T48Q | -1.26
T37K | -1.27
S47F | -1.53
Q41M | -1.28
T48V | -1.33
N42E | -1.41
E54K | -1.56
N42K | -0.95
E32C | -1.53
K36E | -1.52
L31W | -1.46
T37G | -1.5

Block 3
Target: Interferon regulatory factor 7, full length, phosphomimetic (IRF7, Homo sapiens, UniProt Q92985, residues 1-503, S101K/S471D/S472D/S475D/S476D/S477D/S483D/S484D/S487D)
Sequence of UniProt Q92985 (whole entry, unmodified, looked up): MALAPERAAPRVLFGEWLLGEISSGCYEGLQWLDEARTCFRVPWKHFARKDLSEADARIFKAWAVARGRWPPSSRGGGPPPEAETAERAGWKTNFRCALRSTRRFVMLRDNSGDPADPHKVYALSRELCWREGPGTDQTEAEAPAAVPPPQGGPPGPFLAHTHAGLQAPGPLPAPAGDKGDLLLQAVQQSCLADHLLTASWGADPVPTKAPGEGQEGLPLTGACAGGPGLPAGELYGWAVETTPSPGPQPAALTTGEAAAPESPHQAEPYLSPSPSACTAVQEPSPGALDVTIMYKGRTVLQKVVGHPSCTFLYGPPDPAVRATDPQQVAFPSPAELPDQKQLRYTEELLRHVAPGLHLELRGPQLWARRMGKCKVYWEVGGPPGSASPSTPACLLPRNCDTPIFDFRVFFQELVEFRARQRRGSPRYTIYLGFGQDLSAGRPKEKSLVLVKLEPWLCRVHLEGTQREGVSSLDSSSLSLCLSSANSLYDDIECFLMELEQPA
Technique: protein-binding microarray
Form: double-stranded DNA, one strand shown
Sample: in vitro
Concentration: 250 nM
Notes: 60-bp whole probe
Added: salmon DNA 0.4 mg/ml
Baseline: random background probes
Reading: higher = stronger binding
All sequences stand within: GCCTAGCAC … GTCTTGATTCGCTTGACGCTGCTG
Strand | log fluorescence [z-score]
CCCGCCCCGCCCCGCCCGCAGTGCTAG | 0.25
TTAGGTTTCAGGTTTCGGTTAGTGCTA | 8.78
TTAGGACTGGGTATCGGTTGGTGCTAG | 0.986
TCAATCTTCACTCTTAATTAGTGCTAG | 0.381
GACGATTTGAGACTGGAGACGTGCTAG | 0.00223
TCATATTTACTCTCTACAACTGTGCTA | 0.959
CCCTTTTAAGTTCTCTGAAGGTGCTAG | 1.67
GACGATATCAGTATCGAGATGTGCTAG | 0.351
TTAGATATGAGACTGGATTAGTGCTAG | -0.0687
GACGATAGCGGGACTGGAGACGTGCTA | -0.929
GACGGTTTGCTACTGCTGACGTGCTAG | -0.111
GACGATTTCAGTCTCGAGGCGTGCTAG | 0.561
GACGGTATCGACTTACGGGACGTGCTA | 2.11
TCTGGGCCTCCATCATCTGTGTGCTAG | -1.04
GACGGTTCCCCTTTCCTGACGTGCTAG | 2.01
GACGAACTGAGACTCGAGACGTGCTAG | 0.504
TTACATTTCAGACTGGATTAGTGCTAG | 0.611

Block 4
Target: Histone acetyltransferase KAT6A, winged helix 1, GST fusion (KAT6A, Homo sapiens, UniProt Q92794, residues 1-85)
Technique: protein binding microarray
Form: double-stranded DNA, one strand shown
Sample: in vitro
Concentration: not given
Notes: 8-mer, flanks averaged, mean of 2 arrays, mostly near background
Baseline: not given
Reading: higher = stronger binding
Target sequence (chain): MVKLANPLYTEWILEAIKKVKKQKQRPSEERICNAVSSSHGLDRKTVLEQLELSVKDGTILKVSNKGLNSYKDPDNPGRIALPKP
Strand | E-score
AGGGCTGA | -0.211
CCCTTATC | -0.129
ATAGGAAA | -0.0398
CGAGTTAG | -0.062
TGTACAAA | -0.221
ATATAGAG | 0.0307
GCGGAGGA | 0.194
ACTGCTAG | -0.0946
AAACATAA | -0.122
AAACCCGT | 0.31
CAACAGAA | -0.137
GTCTAGGA | -0.171
CGGACTGC | 0.126
AGAACCGG | 0.27
AGTCGTCC | -0.0567
AATTCCTG | -0.0825
AACAGTTG | -0.182
GTTTTGGA | -0.173
ATGCGATA | -0.00215
ATATGCGA | 0.111
ATATCGGA | -0.0371
ATTCTCGA | -0.116
AAATCGAG | -0.155
AAGGTACT | -0.0481
CCATCGCG | 0.32

Block 5
Target: RING finger protein unkempt homolog, zinc fingers 1-6, SBP tag (UNK, Homo sapiens, UniProt Q9C0B0, residues 30-357)
Sequence of UniProt Q9C0B0 (30-357, looked up): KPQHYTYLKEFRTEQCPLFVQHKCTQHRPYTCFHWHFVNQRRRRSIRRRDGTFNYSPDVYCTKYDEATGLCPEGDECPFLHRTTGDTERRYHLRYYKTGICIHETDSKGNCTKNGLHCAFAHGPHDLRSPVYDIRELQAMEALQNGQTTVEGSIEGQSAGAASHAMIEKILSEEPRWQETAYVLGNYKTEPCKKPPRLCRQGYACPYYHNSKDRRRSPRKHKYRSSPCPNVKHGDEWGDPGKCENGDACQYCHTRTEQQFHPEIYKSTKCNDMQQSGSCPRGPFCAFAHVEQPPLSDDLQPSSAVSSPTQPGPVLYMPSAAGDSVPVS
Technique: RNA Bind-n-Seq
Form: RNA
Sample: in vitro
Concentration: 100 nM
Notes: RNA with constant flanks, vertebrate orthologous sites, ends assumed
Baseline: input RNA pool
Reading: higher = stronger binding
All sequences stand within: GGGAGUUCUACAGUCCGACGAUC … CAACAGAGGAUUGAGCAUCA
Strand | bound/input enrichment [ratio]
UGAGGGAGAGAUUCCUGUGAUUUUUAAUAUUUUGUUUGUUCUUUUUAAGAUACUCCAGUAUGCCAUUUUUAAUGGGACUGGUGUAUUAACAGUUCUCUCCUAAGUCUUCAUAAAGAAUCA | 0.294
GCACAUGCCGCUAUGACCGAAAUCUGGCUGCCGUAUUUCAAAUUUCAUUCAGAGUCGUUCUAGUGUUUCCUAUUCCCUACCCUUCCUAUGACUCUCAGUGAUGAAGUAUCUUAAGUUUUC | 0.924
UUGACCUUGUUUCUUUAUCUUCCUUUUUAUUUUCUUUCUUUUUCUUCGCUUUUUUUCUUUCUAGUGUUGUUACCCACGCCAUUUUACGUCUCCUUCACUGAAGGGCUAGAGUUUUAACUU | 3.21
UUUUUUUCCAGGUGGGAUGUAGUGGAAAAGUCAUAGGAAUUGAUCACAUUAAAGAGCUAGUAGAUGACUCAAUAAACAACGUCAGAAAGGAUGACCCAACACUUUUGUCUUCAGGGAGAG | 0.817
CCGAAAGGCCAAAUCCCCUCCUCCCUUCUACUGCUUCUACCAACUGGAAGCACAGAAAACUAGAAUUUCAUUUAUUUUGUUUUUAAAAAUAUACGUUGAUUUCUUGUAACAUCCAAUAGG | 0.469
CUCUAUGGGCCUCGCAGAGUUGAAAUAAUGGAAGAGGAAAGUGAAUAGUAGUCUUCAUUUUAGUAUUUAUGCUUAGGUGUGAAAAUAAAUGUUAUUUGCUGAUCAUUUCUAUAAUCCAGA | 0.553
UAUUAGUGUCAUACCAGCAUAUUAACCUCUCGUCUGUGCACAGCUUCAAAUGUUACCGUCUAGUUAGAUUUUUAUUUAAAAUAUGAAAAACUGCUUUUCCCAAGAUGUUUUUUAAAAACA | 1.53
UGUCCUUUCUCACUGUCCCCAGCCGGGGCCGGGGACCGGUGUGUCACUGAGGACCUGCAUUAGAAACAUUUUUUAAAUUGUUGUACAGGAAGAGAUGCGUCUAAAACAGCAUCUCAAAGC | 1.13
UUUUAUUGAUCAGGUCUGUAAAUGUGUACUAAAAAAAUCAGAGUUUAUUUAUAAACAGAAUAGUUUAUUUAAAGAGAAGGUCUUUUCCUUAUUGAUAUCAUGGUAUGCAUUAAUUCCAUU | 0.147
UUAUGUGAUUUUAUUUAUUGAGGAUAGUUGUGUGCUAAGAACUGUGUUAGAUUUAAAAAUUAGAGGAUUAAUUCCUCUUUGUUGUGUUGCUUUCAUUAUUAAAAAUAAAUAGAACUUUGU | 1.35
AGAAUCUAAAAUUAUGGCAGAAGAGCCAAGCAGUAGCAUUUUUUCCAUAAAUGUAAAAAUUAGAUCCAGCCUUUGUUUCCUUAUUCAACUUUAAAAAUAAAAAUACCUCAGUACUAUGUU | 0.912
